Experimental data of several laboratories.
Lines come from different studies, so protocols differ. ± marks the error that the study gave.

c1csc(CNCC23C4CCC5C4C4C(CCC42)C53)c1 — EC50 (Influenza A virus; viral replication; MDCK, H1N1 A/PR/8/34): > 100 µM
CC[C@H](C)[C@H](NC(=O)[C@@H](NC(=O)[C@H](CC(=O)O)NC(C)=O)[C@@H](C)O)C(=O)N[C@@H](CCCNC(=N)N)C(=O)N[C@@H](CC(C)C)C(=O)N[C@@H](CC(C)C)C(=O)N[C@@H](Cc1ccccc1)C(=O)N[C@@H](CCC(N)=O)C(=O)N[C@@H](CC(C)C)C(=O)N[C@@H](CCSC)C(=O)N[C@@H](CCCNC(=N)N)C(=O)N1CCC[C@H]1C(=O)N1CCC[C@H]1C(=O)N[C@@H](CC(N)=O)C(=O)N[C@@H](CCSC)C(=O)N[C@H](C(=O)N1CCC[C@H]1C(=O)N[C@@H](C)C(=O)N[C@H](C(=O)N[C@@H](CC(N)=O)C(=O)N[C@@H](C)C(N)=O)C(C)C)[C@@H](C)O — antigen-experienced T cells (measured: HA-02 tetramer; tetramer+ CD4 T cells, PBMC, healthy adults, HLA-DRB1*0101; dose not given, CD62L−CD45RA+/− or CD62L+CD45RA−): 85.7%
CC(=N)NCC12C3CCC4C3C3C(CCC31)C42 — EC50 (Influenza A virus; viral replication; MDCK, H3N2 A/HK/7/87): > 100 µM
COc1cc(C(=O)NCCOCCOCCOCCNC(=O)c2ccc([18F])nc2)ccc1NC(=O)C1NC(CC(C)(C)C)C(C#N)(c2ccc(Cl)cc2F)C1c1cccc(Cl)c1F (stereo not drawn) — tracer uptake (HepG2 tumour model; host not given, tumour; 4 h, tumour-bearing): 0.98 %ID/g
CN(C)C12C3CCC4C3C3C(CCC31)C42 — EC50 (Influenza A virus; viral replication; MDCK, H3N2 A/HK/7/87): > 100 µM
CCCCCc1cc(O)c2c(c1)OC(C)(C)C1CCC(C)=CC21 (stereo not drawn) — intraocular pressure (rabbit, α-chymotrypsin glaucoma model; topical, 50 µL of 0.8% w/v, 1.5 h; reference: baseline): 83.7%
CN[C@](C)(C[18F])C(=O)O — tracer uptake (MDA-MB-468 tumour model; host not given, kidney; 15 min, tumour-bearing): 21 %ID/g
CC(C)C1=C(OC(=O)Cc2ccccc2)C(=O)C2=C(C=C[C@H]3C(C)(C)CCC[C@]23C)C1=O — HORAC (hydroxyl radical absorbance capacity, fluorometric): 0.608 Trolox equivalents
CCCCCCCCC(=O)NCc1ccc(O)c(OC)c1 — IC50 (mouse mAb 1-F12; antibody binding, indirect competitive ELISA; together with: coating antigen hapten 5-OVA): 0.0881 µg/mL
N=C(N)NCCC[C@@H]1NC(=O)[C@H](CCCCNC(=O)CCOCCOCCOCCOCCNC(=O)CN2CCN(CC(=O)O)CCN(CC(=O)O)CCN(CC(=O)O)CC2)NC(=O)[C@@H](Cc2ccccc2)NC(=O)[C@H](CC(=O)O)NC(=O)CNC1=O [indium-111 labelled] — tissue uptake (female athymic nude mice, lungs; intravenous, 3 µCi, 4 h, U-87 MG glioma xenograft): 0.59 ± 0.01 %ID/g
CCCCCCCCCCCCCC(=O)NCC(=O)N[C@@H](CCCNC(=N)N)C(=O)N[C@@H](Cc1c[nH]c2ccccc12)C(=O)N[C@@H](CCCCN)C(=O)N[C@H](C(=O)N[C@@H](Cc1ccccc1)C(=O)N[C@@H](CCCCN)C(=O)N[C@@H](CCCCN)C(=O)N[C@H](C(=O)N[C@@H](CCC(=O)O)C(=O)N[C@@H](CCCCN)C(=O)N[C@H](C(=O)NCC(=O)N[C@@H](CCC(N)=O)C(=O)N[C@@H](CC(N)=O)C(=O)N[C@H](C(=O)N[C@@H](CCCNC(=N)N)C(=O)N[C@@H](CC(=O)O)C(=O)NCC(=O)N[C@H](C(=O)N[C@H](C(=O)N[C@@H](CCCCN)C(=O)N[C@@H](C)C(=O)NCC(=O)N1CCC[C@H]1C(=O)N[C@@H](C)C(=O)N[C@H](C(=O)N[C@@H](C)C(=O)N[C@H](C(=O)N[C@H](C(=O)NCC(=O)N[C@@H](CCC(N)=O)C(=O)N[C@@H](C)C(=O)N[C@@H](C)C(=O)N[C@H](C(=O)N[C@H](C(N)=O)[C@@H](C)CC)[C@@H](C)O)C(C)C)C(C)C)C(C)C)C(C)C)[C@@H](C)CC)[C@@H](C)CC)C(C)C)[C@@H](C)CC)[C@@H](C)CC — Bcl-2 protein level (K562/MDR; western blot; concentration not given, 16 h): decreased
COC[C@@H](NC(C)=O)C(=O)NCc1ccc(N=[N+]=[N-])cc1 — channels in slow-inactivated state (voltage-gated sodium channel; CAD; 40 µM, photoaffinity modification, together with: UV 5 min then washout): ~20%
CSCC[C@@H]1NC(=O)[C@H](CCCNC(=N)N)NC(=O)[C@H](Cc2ccc(O)cc2)NC(=O)[C@@H](NC(=O)[C@H](CCCNC(=N)N)NC(=O)[C@H](CCCCN)NC(=O)[C@H](CC(=O)O)NC(=O)[C@H](C)N)CSSC[C@@H](C(=O)N[C@@H](CCCNC(=N)N)C(=O)N[C@@H](Cc2ccc(O)cc2)C(=O)NCC(=O)O)NC(=O)CNC(=O)[C@H](CCCCN)NC(=O)[C@H](CCCCN)NC(=O)[C@@H]2CSSC[C@H](NC1=O)C(=O)N[C@@H](CCC(N)=O)C(=O)N[C@@H](CCCNC(=N)N)C(=O)N[C@@H](Cc1ccc(O)cc1)C(=O)N[C@@H](Cc1c[nH]cn1)C(=O)N[C@@H](CCC(N)=O)C(=O)N[C@@H](CCCNC(=N)N)C(=O)N[C@@H](CCCNC(=N)N)C(=O)N[C@@H](CCC(N)=O)C(=O)N[C@@H](CCCNC(=N)N)C(=O)N[C@@H](CCCNC(=N)N)C(=O)N[C@@H](CCC(N)=O)C(=O)N2 — inhibition (Kv1.2 (human); ion current, inhibitor; concentration not given, pH 7.4): 50.1 ± 0.8%
CC/C=C\C/C=C\C/C=C\C/C=C\C/C=C\C/C=C\CCC(=O)Nc1ccn(C2OC(CO)C(O)C2(F)F)c(=O)n1 (stereo not drawn) — CC50 (NCI-H460; NCI60 screen): 43.3 µM
CC(C)CC(C(=O)N1CC2(CC1C#N)C(=O)Nc1ccccc12)N(C)C(=O)c1cc2c(F)cc(F)c(F)c2[nH]1 (stereo not drawn) — IC50 (other human protease families; inhibitor): > 100 µM
N=C(N)NCCC[C@@H]1NC(=O)[C@H](CCCCNC(=O)CCOCCOCCOCCOCCNC(=O)CC[C@H](NC(=O)CCOCCOCCOCCOCCNC(=O)CC[C@H](NC(=O)CN2CCN(CC(=O)O)CCN(CC(=O)O)CCN(CC(=O)O)CC2)C(=O)NCCOCCOCCOCCOCCC(=O)N[C@@H](CCC(=O)NCCOCCOCCOCCOCCC(=O)NCCCC[C@@H]2NC(=O)[C@@H](Cc3ccccc3)NC(=O)[C@H](CC(=O)O)NC(=O)CNC(=O)[C@H](CCCNC(=N)N)NC2=O)C(=O)NCCOCCOCCOCCOCCC(=O)NCCCC[C@@H]2NC(=O)[C@@H](Cc3ccccc3)NC(=O)[C@H](CC(=O)O)NC(=O)CNC(=O)[C@H](CCCNC(=N)N)NC2=O)C(=O)NCCOCCOCCOCCOCCC(=O)NCCCC[C@@H]2NC(=O)[C@@H](Cc3ccccc3)NC(=O)[C@H](CC(=O)O)NC(=O)CNC(=O)[C@H](CCCNC(=N)N)NC2=O)NC(=O)[C@@H](Cc2ccccc2)NC(=O)[C@H](CC(=O)O)NC(=O)CNC1=O [indium-111 labelled] — tissue uptake (female athymic nude mice, eyes; intravenous, 3 µCi, 24 h, U-87 MG glioma xenograft): 0.63 ± 0.1 %ID/g
NCCCC[C@H](NC(=O)CNC(=O)CNC(=O)[C@H](CCCCN)NC(=O)CNC(=O)CNC(=O)CNC(=O)[C@H](CCCCN)NC(=O)CNC(=O)CNC(=O)[C@H](CCCCN)NC(=O)CNC(=O)CNC(=O)CNC(=O)[C@H](CCCCN)NC(=O)CNC(=O)CNC(=O)[C@H](CCCCN)NC(=O)CNC(=O)CNC(=O)CNC(=O)[C@H](CCCCN)NC(=O)CNC(=O)CNC(=O)[C@H](CCCCN)NC(=O)[C@H](CO)NC(=O)[C@H](Cc1ccc(O)cc1)NC(=O)CNC(=O)CNC(=O)CN)C(=O)NCC(=O)O — ka1 (binding, SPR two-state model; rVλ6Wil fibrils; 300 nM, pH 7.4): 75000 M⁻¹ s⁻¹
CCN(Cc1ccccc1)C(=O)CCc1nc(CN2CCN(C(=O)Cc3ccc(OC)c(OC)c3)CC2)no1 — onset day (mechanical withdrawal threshold, von Frey; mouse CCI model; 5 mg/kg, dosing from day 11): 13 days

A few entries again:
N=C(N)NCCC[C@@H]1NC(=O)[C@H](CCCCNC(=O)CCOCCOCCOCCOCCNC(=O)CN2CCN(CC(=O)O)CCN(CC(=O)O)CCN(CC(=O)O)CC2)NC(=O)[C@@H](Cc2ccccc2)NC(=O)[C@H](CC(=O)O)NC(=O)CNC1=O [indium-111 labelled] — tissue uptake (female athymic nude mice, lungs; intravenous, 3 µCi, 4 h, U-87 MG glioma xenograft): 0.59 ± 0.01 %ID/g
